# Assay results from different studies.
# Every numbered part comes from another study and shows a few of its results, in no order. Substitutions count along the parent as printed.

# Sample 1
# Target: Ras GTPase-activating protein-binding protein 1, full length (G3BP1, Homo sapiens, UniProt Q13283)
# Sequence of UniProt Q13283 (whole entry, looked up): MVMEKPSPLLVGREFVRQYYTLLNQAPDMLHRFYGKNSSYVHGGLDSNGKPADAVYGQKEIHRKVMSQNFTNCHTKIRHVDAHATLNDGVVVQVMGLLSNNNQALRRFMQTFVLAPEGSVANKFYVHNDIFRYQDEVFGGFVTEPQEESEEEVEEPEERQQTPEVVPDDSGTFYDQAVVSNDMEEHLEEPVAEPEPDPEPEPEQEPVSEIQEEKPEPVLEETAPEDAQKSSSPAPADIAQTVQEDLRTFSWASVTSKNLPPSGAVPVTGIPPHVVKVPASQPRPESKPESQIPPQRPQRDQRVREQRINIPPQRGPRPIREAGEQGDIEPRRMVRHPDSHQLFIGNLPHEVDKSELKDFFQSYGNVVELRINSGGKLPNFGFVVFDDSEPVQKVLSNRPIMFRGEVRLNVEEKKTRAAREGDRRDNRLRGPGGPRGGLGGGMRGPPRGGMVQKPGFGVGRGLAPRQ
# Technique: RNA Bind-n-Seq
# Molecule type: RNA
# Medium: in vitro
# Concentration: 200 nM
# Setting: whole 134-nt RNA, ends assumed
# Added: 150 mM LiCl
# Relative to: input library
# Reading: higher = stronger binding
# Each molecule: 7-deaza-guanosine replaces G
# Shared flanks, not repeated: GGGAGUUCUACAGUCCGACGAUC … UGGAAUUCUCGGGUGUCAAGG
Sequence,log2 enrichment
UCUCUUAUGCUAUUGGAGUUUCUCAUCCAUUAUCUAUCUCCAUUUUCCAUUAUGGUACCUCUCAGAAGAGUGAGAGAGAGCUAUUAGAGA,0.611
UGAAGCGAGAAGCUGCCCUACCCCCAGUGAGCCCCCUGAAGGCGGCUCUCUCUGAGGAGGAGUUAGAGAAGAAAUCCAAGGCUAUCAUUG,0.499
CACAGACAACACGCACCCACACAGACACAGAGGGAAGGGGUUGGGAUGGGGACAGGGUCCACAGCAGGGCGGGGUAGGACCCCAGCCCCU,0.692
UUUAUCAUGAGGAGCUCAACGCGCCCAUACGGAGAAACAAAGAAGAGCCCAAGGCCCGGCCCUUGAGAGUAGGUGACACGGAGAAGCCAG,-0.79
UGAACCUUCCAAUAGCAACCAAGAAAUAAACUCUGAUGACAGACGACCCCAAUGGAGACGAGAAGACCGAAUUCCUUACCAAGACAGAGA,1.22
ACCAUGCAGGUGGGCAUCUUUGGGAAGUAGGGCAAGGGGGGGAUAGGGAGGGGGGUAACACUUUGGGAACAGGUGGUCCCAGGUCGUUUC,0.415
CAAGUCCUGUGCUACACAUCGUAUGUACCGAAUCGGGUUUGGGUUUGGGGUUUGGAAAGUAUUAUGUUACGCCGUUCGGAUCUGCACUUC,-0.932

# Sample 2
# Target: Sal-like protein 4, full length isoform B (SALL4, Homo sapiens, UniProt Q9UJQ4-2, residues 1-616)
# Technique: universal PBM
# Molecule type: double-stranded DNA, one strand shown
# Medium: in vitro
# Concentration: not given
# Setting: 8-mer, flanks averaged, mean of replicates
# Reading: higher = stronger binding
# Target sequence (chain): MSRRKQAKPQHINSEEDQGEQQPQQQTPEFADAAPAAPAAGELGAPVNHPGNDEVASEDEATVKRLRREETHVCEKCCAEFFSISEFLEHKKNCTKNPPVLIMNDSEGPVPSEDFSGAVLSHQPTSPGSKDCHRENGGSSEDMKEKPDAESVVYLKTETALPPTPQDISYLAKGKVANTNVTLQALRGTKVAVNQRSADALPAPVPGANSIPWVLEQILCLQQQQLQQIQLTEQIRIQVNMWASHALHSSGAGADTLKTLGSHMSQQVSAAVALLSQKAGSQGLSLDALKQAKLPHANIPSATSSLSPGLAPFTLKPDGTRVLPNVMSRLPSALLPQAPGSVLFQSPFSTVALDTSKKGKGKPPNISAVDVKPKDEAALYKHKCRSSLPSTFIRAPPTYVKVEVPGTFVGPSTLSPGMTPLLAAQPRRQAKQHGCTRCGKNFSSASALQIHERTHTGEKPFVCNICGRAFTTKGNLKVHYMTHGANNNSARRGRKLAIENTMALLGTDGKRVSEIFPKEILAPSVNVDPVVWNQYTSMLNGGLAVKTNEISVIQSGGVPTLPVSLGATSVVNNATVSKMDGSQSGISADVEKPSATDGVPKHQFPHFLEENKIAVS
Sequence,E-score
AAGCGCAG,-0.238
AAACCAGC,-0.0647
AGCCAGGG,-0.3
AAGGAGAC,-0.0703
AGAGGGCG,-0.24
AACCTCAT,0.175

# Sample 3
# Target: CCND1, cyclin fold, Cln2 fusion (human)
# Technique: yeast growth competition, sequencing
# Medium: yeast
# Setting: strong parent motif
# Relative to: not given
# Reading: higher = stronger binding
# Starting sequence: PKN2 docking peptide (human); VSAVRKLDFSDTM; partner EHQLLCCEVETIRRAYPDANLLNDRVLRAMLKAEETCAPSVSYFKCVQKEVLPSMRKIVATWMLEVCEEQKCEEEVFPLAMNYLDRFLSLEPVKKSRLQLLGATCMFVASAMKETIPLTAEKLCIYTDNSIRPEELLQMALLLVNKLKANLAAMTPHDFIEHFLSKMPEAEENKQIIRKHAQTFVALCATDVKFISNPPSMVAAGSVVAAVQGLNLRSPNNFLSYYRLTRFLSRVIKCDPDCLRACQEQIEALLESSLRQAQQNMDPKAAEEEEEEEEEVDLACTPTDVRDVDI
Change,normalised enrichment score
T12D,5.54
V4Y,1.98
S2W,2.98
L7A,0.127
K6H,3.01
S10N,5.39
D8H,2.76

# Further values, each from its own experiment
Molecule,target,test,system,setting,scale,quantity,result
"PhoQ, residues 284 288 289 292 302 303 QWGLFV","PhoP, residues 12 14 15 18 19 IFFTR (Escherichia coli, UniProt P23836)","Sort-seq, measured: YFP reporter",E. coli,"PhoQ-PhoP variant library, added: 10 µM Mg2+","relative to: high Mg2+ state, higher = stronger signaling",fold induction,7.02

# Repeated from above (sample 1):
Sequence,log2 enrichment
ACCAUGCAGGUGGGCAUCUUUGGGAAGUAGGGCAAGGGGGGGAUAGGGAGGGGGGUAACACUUUGGGAACAGGUGGUCCCAGGUCGUUUC,0.415
UGAAGCGAGAAGCUGCCCUACCCCCAGUGAGCCCCCUGAAGGCGGCUCUCUCUGAGGAGGAGUUAGAGAAGAAAUCCAAGGCUAUCAUUG,0.499
CAAGUCCUGUGCUACACAUCGUAUGUACCGAAUCGGGUUUGGGUUUGGGGUUUGGAAAGUAUUAUGUUACGCCGUUCGGAUCUGCACUUC,-0.932
